Measured values pooled from the literature.
Each numbered part is a random draw from the data of one study; scales do not carry over between parts. Substitutions count along the parent as printed.

Block 1 — technique: RNA Bind-n-Seq; molecule type: RNA; matrix: in vitro; concentration: not given; reference: input RNA pool; reading: higher = stronger binding; endpoint: bound/input enrichment
Target: RING finger protein unkempt homolog, zinc fingers 1-6, GST-SBP tag (UNK, Homo sapiens, UniProt Q9C0B0, residues 30-357)
Setting: RNA with constant flanks, human-mouse chimeric sites, ends assumed
Residues (chain): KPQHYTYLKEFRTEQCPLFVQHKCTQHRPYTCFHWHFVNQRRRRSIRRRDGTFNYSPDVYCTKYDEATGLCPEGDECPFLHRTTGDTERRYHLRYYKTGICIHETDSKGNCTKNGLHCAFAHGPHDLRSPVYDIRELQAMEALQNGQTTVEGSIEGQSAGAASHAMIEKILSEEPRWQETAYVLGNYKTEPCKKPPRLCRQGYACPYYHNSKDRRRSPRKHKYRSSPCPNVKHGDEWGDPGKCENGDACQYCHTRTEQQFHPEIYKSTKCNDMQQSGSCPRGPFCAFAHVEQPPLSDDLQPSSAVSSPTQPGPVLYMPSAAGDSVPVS
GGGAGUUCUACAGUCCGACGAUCGCAAAGGAUGAUGAGGCAGCUGCAGUUGCCCUUUCCUCCCUGAUUCAUGCUUUGGAUGAGUUAAACAUGGUCGCCAUCGUCCGAUAUGCUUAUGACAAAAGAUCUAAUCCUCAAGUUGGUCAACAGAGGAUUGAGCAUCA: 0.0983 ratio
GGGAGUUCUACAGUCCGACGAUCGUUGCCAGCUUCCGGUUCCGUUGGGCUCGGUUCUCUCCUGAGCUACGUGUCUCUACGCUCUCAAUCCCGGUUGGGUAAAACAUGGAUCAGGUAAUGCAGUUUGUGGAGCCCAGCCGGCAGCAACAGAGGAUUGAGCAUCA: 0.0741 ratio
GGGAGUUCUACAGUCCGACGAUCUUACUUUUGACUCCCUGGGUCAAGUUCCUGUGGGAAUCAUACAGGCAGUGUUUGGACCUUCUUCGAAACAAUUCUAGAGUAGAGCGCCUUUACCAUGAUAUCGCCCAGCAAGCUUUCAAACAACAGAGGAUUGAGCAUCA: 0.208 ratio
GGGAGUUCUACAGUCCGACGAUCUAAGUUAUUUUGUACAGCUUUGUAAAUUCUUAACAUUUUUAUAUUGCCAUGUUUAUUUUGUUUGGGUAAUUUGGUUCAUUAAGUACAAAACCAAAUAAAUGAACAUCUUUUUCAGUAAUUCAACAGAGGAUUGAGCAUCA: 1.24 ratio
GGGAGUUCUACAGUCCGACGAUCUCUGGUCAUACUCGUGCGUAUGGUGUUUGCUUUGUGGACACUUCACUGGGCAAGUUUUUCAUCGGCCAGUUUUCGGAUGACCGCCACUGUUCGAGAUUUAGGACGCUAGUGGCUCACUAUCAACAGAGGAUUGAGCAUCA: 0.21 ratio
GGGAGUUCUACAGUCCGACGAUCACUCAGAGAUCCACCUCAAUUGAAGUGGGGAGUAAAGGUGUGGCCACCACACCUAACUUGAUGGAUAUAUAUUUUUUUUAAUAUGAAUCUUCCUGUUCGUCCAGGGAAGAAAGAUUUGUUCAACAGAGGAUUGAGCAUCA: 1.13 ratio
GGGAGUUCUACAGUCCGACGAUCCGCUGGCCCAAGCUGAUGGACUCUGAUGGCCUCCAUCAAGGUAUUAUGUGUGCCUUCUCUUAGUCCCUGUUUUCGGGUCACAAAGCUUCUCAGUACUGUGGUUUGAAAGCACCAGCUUUGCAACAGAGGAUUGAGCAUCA: 0.101 ratio
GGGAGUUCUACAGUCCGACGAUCUCUUAACGUCCAUUUAACUUAUUUUUAUAUAGCUAGAUAAAUAUUGUUAGUCUUAGACAAUAGCUCACAUUUUUUGAGAAGCAUGCCCUCCCUGUCCAUUUGUCUUAUAACAUGACCCAGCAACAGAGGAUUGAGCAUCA: 33.8 ratio
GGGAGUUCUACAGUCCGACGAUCGCAAGAGAUGAUGAGGCAGCUGCAGUUGCCCUUUCCUCUCUCGUUCAUGCUUUGGAUGAGUUAAACAUGGUCGCCAUCGUCCGAUAUGCUUAUGACAAAAGAUCUAAUCCUCAAGUUGGUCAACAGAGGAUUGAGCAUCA: 0.116 ratio
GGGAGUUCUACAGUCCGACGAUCGGUGGGGUGGUCAUUGCCGUUUGAGCUGCUGAUUUUCUUAUGAAUCAUUCAAAACUCUCGCAUAGGGUUGACAAUGUGGGGGGGUGGGGGAUCCAGCUUAUUCUUUUAUUUUCAAGUCCACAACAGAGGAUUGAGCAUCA: 0.69 ratio
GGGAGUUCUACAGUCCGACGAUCCUGGCCUUCUGAGCAUCAGGGGCCUCCUUUCGUAUAGUCACUGCUUCUGCAUCAGAUACUUUCAGCUCCAAGUCCUGACUGGGUGGGGCACCCAUUUCAGGCAGAAGGUUUUGGUACCCUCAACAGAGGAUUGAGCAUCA: 0.158 ratio

Block 2 — technique: DHFR PCA, deep sequencing; matrix: yeast; added: (+)-ABA 0.0091 µM; reference: wild-type fitted maximum; reading: higher = stronger binding; endpoint: relative binding score
Target: ABI1, truncated, D143A, DHFR fusion (Arabidopsis thaliana)
Setting: methotrexate growth selection, single substitutions
Starting sequence: PYL1, truncated, DHFR fusion (Arabidopsis thaliana); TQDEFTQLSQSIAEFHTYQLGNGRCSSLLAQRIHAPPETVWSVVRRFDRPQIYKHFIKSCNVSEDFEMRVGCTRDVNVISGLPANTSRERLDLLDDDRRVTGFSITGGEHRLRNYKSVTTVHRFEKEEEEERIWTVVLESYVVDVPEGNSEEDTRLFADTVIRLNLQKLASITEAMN
H34W: 10.8%
S26C: 12.5%
T173S: 20.6%
S63D: 40.7%
E174I: -2.36%
R46E: -2.36%
S117E: 4.85%
E147L: 9.26%
I105T: 0.436%
E64C: 15.2%
Q167Y: -1.61%
E152Y: 4.93%
I172W: -9.27%
T119I: -9.73%
R113F: -6.51%
E127W: 11%
A35E: 3.11%
V143I: 0.854%
I33D: -0.561%
R69Q: 26.4%

Block 3 — technique: protein binding microarray; molecule type: double-stranded DNA, one strand shown; matrix: in vitro; concentration: not given; reference: not given; reading: higher = stronger binding; endpoint: E-score
Target: Histone acetyltransferase KAT6A, winged helix 2, GST fusion (KAT6A, Homo sapiens, UniProt Q92794, residues 85-181)
Setting: 8-mer, flanks averaged, mean of 2 arrays, mostly near background
Residues (chain): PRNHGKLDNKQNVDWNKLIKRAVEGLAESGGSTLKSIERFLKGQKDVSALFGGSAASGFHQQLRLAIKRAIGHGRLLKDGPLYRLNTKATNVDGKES
CATTTCTA: 0.0258
CTGCGGTC: 0.133
GTCGACTA: 0.154
TGAGGACA: -0.0279
ATGCATTG: -0.083
CACTAGTG: 0.0702
CCATAAAA: -0.0307
AGCAGGTG: 0.13
AAAGTGGA: 0.0129
GCAGCACA: 0.0464
ACAGAAGG: -0.035
TACCTGGA: 0.0574
GCGCCACA: 0.0474
CATATGGC: -0.0962
CTTGGTAA: 0.0879
ACGAGTTC: -0.00325
AGAAGACA: 0.00453
ATCCGTTC: 0.0659
TCAATTAA: 0.047
CTTCTTCA: -0.0973
AGTTAACA: 0.0818
ATTTCCTC: 0.163
CACCTTTA: -0.0549
AAGAGTGT: 0.0164
AATAATAA: 0.166

Block 4 — technique: RNA Bind-n-Seq; molecule type: RNA; matrix: in vitro; concentration: 365 nM; reference: no-protein control; reading: higher = stronger binding; endpoint: RBNS enrichment (R)
Target: RNA binding protein fox-1 homolog 2, RRM domain, GST-SBP tag (RBFOX2, Homo sapiens, UniProt O43251-10, residues 100-194)
Setting: natural RNA segment, single round, ends assumed
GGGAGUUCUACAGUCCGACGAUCUGCUUUGGACUUGCUUUAGGAGGGAAAUAUAGCUUUGUAGAGAUAAAGGCUGACAUCUGGGGUCUAGCCUAGCACCUGAAGAUACUUGUGAUGUCUAACUCUGCAUAGCCUGGAAUUCUCGGGUGCCAA: 1.33
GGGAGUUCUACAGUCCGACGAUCUUUAAAAACAUUCCCCAAUUAUCUUAUUUAAUUUUUGCAAUUAUUCUAAUUUUAUAUAUAGAGAAAGUGACCUAUUUUUUAAAAAAAUCACACUCUAAGUUCUAUUGAACUGGAAUUCUCGGGUGCCAA: 1.9
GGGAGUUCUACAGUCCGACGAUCCUGUCAAAAUACGUUACUUGCAUUUAUUCCAAAUAAUCUCGUUUACUCUUAACUGUUUAUGCAAAUUGUAUAAGGUUUCUUAUGCCCAAGCUUGAAAAAUGAUUUCCCAGUGGAAUUCUCGGGUGCCAA: 0.904
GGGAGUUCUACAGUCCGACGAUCAGCGGGGCAGUCUCGGGUGGCUAGUCAGAGAGAGUGUUUGGGGGUUCCGUGAUGUAGGGUAAGGUGCCUUCUUAUUCUCACUCCACCACCCAAAAGUCAAAAGGUGCCUGUGGAAUUCUCGGGUGCCAA: 1.05
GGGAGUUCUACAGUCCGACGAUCCUCUGCAAGAAGCUCAAGGAAGCUCAGGGAAAAUGGACGUAUUCAGAGAGUGUUUGUAGUUCAUGGUUUUUCCCUACCUGCCCGGUUCCUUUCCUGAGGACCCGGCAGAAUGGAAUUCUCGGGUGCCAA: 0.482
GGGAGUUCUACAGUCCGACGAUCAAAAAAUUAGCUGGGUGUGAUGGCACACACCUGUUGUCCCAGCUACUCAAGAAGCUGAGAUGGGAGGAUCCUGAGCUCAGGAGGUCAAGGCUGCAGUGAGCCGAGAUUGUUGGAAUUCUCGGGUGCCAA: 0.426
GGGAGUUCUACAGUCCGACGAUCCUGGUGAUGCCUUGUUUGGGGUUCUGUGGGUUUGGGUGGGAAGAGGGCCAUCUGCCUGAAUGUAACCUGCUAGCUCUCCGAAGGCCCUGCGGGCCUGGCUUGUGUGAGCGUGGAAUUCUCGGGUGCCAA: 1.89
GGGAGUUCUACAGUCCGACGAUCUAAAUUUGCAAUUAUUCUAAUUUGAUAUAGAGAGAAACUGACCUAUUUAACAAAUGGACUCUCUUAAUUCUACUGGACCCAGGCCUUGAACUUUCUGGUUUCUGUCUCUGUGGAAUUCUCGGGUGCCAA: 0.437
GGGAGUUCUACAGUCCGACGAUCGUGUGCACAUGUGUGGGUGUGUGUGCACAUGUUUGGAUGUGUGCACAUGUGCAUGCCUGUUUCUUUUUGCCAGGGAGACAACUGAAUUUGGGGCAUUUUUCUACAAACACUGGAAUUCUCGGGUGCCAA: 1.53
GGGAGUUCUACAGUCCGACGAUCCUGAUGCCUUUUGUACCGAGGAAGAUAAUUGCCUCUUGUUUGACAAGUAGAGUUUAGUAGGUUAUUACAAAAAGGGCAAGAGUUGUUUUGGUUUUGUUUCUUUCAAAAUAUGGAAUUCUCGGGUGCCAA: 0.452
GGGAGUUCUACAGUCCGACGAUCCGGAGGUGGGGAAGAACUACUUUCGAGAAUUGUUACGGAGGCAGGUUGAGGGGACACUUUGACCCUCCAAGGUAACAGCCAGUCAGAUGGCUUGAGGUGCCUGGCCCAUGUGGAAUUCUCGGGUGCCAA: 0.375
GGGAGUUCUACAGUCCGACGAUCACAGCUGUUCCCUCGCAUGUUAUUUCAUGAACAUGACCUGUUUUCGUGCACUAGACACACAGAGUGGAACAGCCGUAUGCUUAAAGUACAUGGGCCAGUGGGACUGGAAGUGGAAUUCUCGGGUGCCAA: 0.42

Block 5 — technique: RNA Bind-n-Seq; molecule type: RNA; matrix: in vitro; concentration: 20 nM; setting: 6-mer, flanks averaged, single round; added: 150 mM KCl; reference: input library; reading: higher = stronger binding; endpoint: 6-mer enrichment (R)
Target: TAR DNA-binding protein 43, full length, His tag (TARDBP, Homo sapiens, UniProt Q13148, residues 1-414)
CUGAUG: 0.791
AGACGC: 0.851
GGGUUU: 1.56
CAAAUA: 0.659
ACCCGU: 0.646
ACAAGG: 1.17
ACUGCU: 0.628
UAUUGG: 0.876
GACACC: 0.882
GACAUG: 0.947
GUCCAG: 0.946
CAGGUC: 0.776
AGUAUG: 1.17
CAUAUG: 0.671
GAGAAC: 0.917
UGGCGC: 1.37
CGAGGG: 4.02
UAUGAG: 1.1
CUCUAA: 0.589
GUGCGA: 1.51
AACCAA: 0.652
ACUAAG: 0.718
UAGGAC: 0.814
GUACAA: 0.712
AUUACA: 0.603
